Measurements gathered from unrelated publications.
Protocols differ between the studies behind these lines. Numbers after ± are the reported error.
Sequence of UniProt P05804 (whole entry, looked up): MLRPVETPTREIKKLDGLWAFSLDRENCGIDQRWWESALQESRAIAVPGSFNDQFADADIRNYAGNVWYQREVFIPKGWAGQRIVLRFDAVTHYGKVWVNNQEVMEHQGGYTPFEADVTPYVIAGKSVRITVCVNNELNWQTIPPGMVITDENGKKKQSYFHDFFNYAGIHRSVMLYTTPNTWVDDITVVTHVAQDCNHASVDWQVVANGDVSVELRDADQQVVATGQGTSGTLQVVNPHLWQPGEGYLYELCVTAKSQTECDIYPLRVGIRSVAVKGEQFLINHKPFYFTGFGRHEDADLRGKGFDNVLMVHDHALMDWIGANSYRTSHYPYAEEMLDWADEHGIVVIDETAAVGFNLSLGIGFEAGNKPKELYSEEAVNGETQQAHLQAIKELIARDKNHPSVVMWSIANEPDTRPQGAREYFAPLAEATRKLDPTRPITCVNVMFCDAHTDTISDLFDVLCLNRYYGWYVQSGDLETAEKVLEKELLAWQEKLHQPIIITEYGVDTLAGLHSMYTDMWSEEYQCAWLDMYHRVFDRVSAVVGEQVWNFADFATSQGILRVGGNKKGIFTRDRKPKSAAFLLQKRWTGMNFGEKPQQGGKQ
Sequence of UniProt P40763 (whole entry, looked up): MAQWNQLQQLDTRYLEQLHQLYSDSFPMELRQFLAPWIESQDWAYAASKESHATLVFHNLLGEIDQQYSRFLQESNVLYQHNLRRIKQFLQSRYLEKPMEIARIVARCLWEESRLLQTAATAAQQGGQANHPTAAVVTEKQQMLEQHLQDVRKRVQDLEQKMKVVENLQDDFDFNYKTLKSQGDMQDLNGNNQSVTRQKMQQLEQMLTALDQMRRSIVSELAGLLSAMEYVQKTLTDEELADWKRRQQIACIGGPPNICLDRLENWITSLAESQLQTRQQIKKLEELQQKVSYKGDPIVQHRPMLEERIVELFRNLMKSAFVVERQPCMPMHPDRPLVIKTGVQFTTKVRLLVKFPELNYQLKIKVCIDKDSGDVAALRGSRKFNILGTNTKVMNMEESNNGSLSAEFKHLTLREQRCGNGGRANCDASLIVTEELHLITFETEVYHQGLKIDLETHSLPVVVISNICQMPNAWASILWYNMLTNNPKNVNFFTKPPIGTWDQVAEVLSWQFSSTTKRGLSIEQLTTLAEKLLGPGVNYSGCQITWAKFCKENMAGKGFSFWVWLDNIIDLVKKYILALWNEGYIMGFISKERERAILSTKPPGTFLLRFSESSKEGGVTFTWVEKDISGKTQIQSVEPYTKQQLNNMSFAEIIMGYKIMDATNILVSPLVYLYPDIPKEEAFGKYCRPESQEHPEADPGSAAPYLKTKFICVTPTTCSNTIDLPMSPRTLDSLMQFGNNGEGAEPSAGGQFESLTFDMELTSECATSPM
Sequence of UniProt P08684 (whole entry, looked up): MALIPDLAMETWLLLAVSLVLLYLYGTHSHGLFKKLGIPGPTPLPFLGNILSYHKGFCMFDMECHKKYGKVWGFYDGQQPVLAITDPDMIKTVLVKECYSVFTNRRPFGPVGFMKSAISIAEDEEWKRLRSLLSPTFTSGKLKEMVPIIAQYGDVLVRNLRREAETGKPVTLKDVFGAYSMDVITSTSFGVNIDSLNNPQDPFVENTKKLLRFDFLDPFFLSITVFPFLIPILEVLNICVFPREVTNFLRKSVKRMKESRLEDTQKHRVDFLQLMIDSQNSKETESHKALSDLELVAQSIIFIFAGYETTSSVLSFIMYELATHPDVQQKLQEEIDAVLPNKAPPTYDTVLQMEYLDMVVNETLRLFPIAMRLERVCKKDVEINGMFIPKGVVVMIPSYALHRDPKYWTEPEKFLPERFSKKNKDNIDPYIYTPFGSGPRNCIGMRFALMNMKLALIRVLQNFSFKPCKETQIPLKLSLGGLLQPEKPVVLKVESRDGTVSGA
Sequence of UniProt Q9NR22 (whole entry, looked up): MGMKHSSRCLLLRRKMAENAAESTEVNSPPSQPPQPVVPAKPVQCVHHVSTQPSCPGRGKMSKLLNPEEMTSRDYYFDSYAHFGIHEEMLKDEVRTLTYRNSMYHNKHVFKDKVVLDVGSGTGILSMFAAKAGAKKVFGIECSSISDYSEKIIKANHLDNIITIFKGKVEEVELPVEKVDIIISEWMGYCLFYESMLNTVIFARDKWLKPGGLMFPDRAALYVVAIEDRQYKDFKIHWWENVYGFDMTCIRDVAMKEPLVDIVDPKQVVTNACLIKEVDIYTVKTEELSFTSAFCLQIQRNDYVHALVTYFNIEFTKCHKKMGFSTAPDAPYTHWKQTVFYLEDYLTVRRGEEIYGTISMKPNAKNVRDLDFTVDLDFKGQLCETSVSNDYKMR
Sequence of UniProt P27338 (whole entry, looked up): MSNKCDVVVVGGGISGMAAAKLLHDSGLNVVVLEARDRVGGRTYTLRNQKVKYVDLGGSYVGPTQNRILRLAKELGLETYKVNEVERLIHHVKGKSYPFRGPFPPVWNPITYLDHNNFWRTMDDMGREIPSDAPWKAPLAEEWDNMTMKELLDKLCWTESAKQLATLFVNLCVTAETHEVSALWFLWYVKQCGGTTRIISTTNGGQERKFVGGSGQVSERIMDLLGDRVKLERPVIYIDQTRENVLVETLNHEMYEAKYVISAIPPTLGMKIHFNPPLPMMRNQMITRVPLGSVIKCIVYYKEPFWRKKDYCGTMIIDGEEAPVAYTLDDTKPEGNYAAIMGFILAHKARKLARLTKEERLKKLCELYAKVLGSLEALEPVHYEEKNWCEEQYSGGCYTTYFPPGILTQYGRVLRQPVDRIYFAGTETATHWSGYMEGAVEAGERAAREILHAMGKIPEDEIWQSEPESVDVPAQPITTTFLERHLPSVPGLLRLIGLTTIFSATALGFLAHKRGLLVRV
Sequence of UniProt Q16706 (whole entry, looked up): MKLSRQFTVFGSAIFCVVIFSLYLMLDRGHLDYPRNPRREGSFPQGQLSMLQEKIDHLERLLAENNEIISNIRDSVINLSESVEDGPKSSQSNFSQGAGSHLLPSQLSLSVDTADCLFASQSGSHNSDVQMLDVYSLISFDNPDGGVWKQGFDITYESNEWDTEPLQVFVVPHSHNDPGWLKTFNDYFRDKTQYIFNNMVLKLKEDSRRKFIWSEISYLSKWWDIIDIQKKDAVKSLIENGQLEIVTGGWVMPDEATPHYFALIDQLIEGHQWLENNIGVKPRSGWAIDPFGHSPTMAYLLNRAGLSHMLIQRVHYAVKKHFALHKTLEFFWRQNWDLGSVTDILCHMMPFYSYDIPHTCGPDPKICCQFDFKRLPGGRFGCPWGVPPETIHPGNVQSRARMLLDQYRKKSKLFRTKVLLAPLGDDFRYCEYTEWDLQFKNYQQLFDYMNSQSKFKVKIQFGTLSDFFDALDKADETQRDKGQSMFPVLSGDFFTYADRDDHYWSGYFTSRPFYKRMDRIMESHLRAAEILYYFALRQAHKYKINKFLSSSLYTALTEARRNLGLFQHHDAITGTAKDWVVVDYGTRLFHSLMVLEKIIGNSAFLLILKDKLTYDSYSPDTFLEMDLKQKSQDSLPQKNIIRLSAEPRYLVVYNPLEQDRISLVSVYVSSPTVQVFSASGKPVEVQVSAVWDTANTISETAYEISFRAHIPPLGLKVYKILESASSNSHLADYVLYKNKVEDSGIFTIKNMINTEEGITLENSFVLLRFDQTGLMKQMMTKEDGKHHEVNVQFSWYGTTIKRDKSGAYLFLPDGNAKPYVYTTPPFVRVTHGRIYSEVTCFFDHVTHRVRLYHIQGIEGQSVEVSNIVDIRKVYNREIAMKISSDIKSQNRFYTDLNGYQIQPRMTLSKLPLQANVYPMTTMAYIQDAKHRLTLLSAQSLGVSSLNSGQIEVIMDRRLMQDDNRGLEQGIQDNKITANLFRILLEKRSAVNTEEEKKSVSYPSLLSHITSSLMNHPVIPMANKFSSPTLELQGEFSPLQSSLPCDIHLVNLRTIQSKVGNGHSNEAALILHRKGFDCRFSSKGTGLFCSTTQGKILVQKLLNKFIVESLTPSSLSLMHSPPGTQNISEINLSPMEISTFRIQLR
Sequence of UniProt P41020 (whole entry, looked up): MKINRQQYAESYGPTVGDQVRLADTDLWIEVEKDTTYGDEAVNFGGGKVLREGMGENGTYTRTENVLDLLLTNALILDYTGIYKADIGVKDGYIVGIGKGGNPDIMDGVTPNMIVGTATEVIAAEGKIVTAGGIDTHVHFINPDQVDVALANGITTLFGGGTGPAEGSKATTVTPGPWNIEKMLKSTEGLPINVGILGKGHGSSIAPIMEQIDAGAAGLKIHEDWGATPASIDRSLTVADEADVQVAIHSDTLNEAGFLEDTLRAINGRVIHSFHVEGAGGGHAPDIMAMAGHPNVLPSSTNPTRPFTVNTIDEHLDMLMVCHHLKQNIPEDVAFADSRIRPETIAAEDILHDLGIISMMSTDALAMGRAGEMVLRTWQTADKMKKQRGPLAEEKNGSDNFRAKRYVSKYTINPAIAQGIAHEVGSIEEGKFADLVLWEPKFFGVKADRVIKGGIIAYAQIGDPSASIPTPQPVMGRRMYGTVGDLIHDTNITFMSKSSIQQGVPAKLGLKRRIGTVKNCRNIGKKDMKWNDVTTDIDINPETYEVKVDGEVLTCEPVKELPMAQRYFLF
Sequence of UniProt Q6XEC0 (whole entry, looked up): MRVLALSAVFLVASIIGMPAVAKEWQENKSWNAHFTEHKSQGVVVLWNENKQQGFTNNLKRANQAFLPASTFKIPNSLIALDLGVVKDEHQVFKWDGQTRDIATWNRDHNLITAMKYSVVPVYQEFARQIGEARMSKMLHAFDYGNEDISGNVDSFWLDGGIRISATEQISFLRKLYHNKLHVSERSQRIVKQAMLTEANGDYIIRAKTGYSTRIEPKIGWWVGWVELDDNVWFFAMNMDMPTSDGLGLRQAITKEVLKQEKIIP

| SMILES | target | test | setting | IC50 |
| --- | --- | --- | --- | --- |
| NC(=S)N/N=C/c1ccc(OCc2cccc(F)c2)cc1 | MAOB (Homo sapiens, UniProt P27338) | enzyme activity, inhibitor, absorbance | – | 0.11 µM |
| Cc1cccc(-c2nc(Nc3ccncn3)c3sccc3n2)n1 | Cytochrome P450 3A4 (CYP3A4, Homo sapiens, UniProt P08684) | enzyme activity, inhibitor | together with: VG substrate | 17 µM |
| C1CCc2c(c(N3CCOCC3)nc3sc4c(N5CCOCC5)nnnc4c23)C1 | Beta-glucuronidase (uidA, Escherichia coli, UniProt P05804) | enzyme activity, inhibitor | – | > 100 µM |
| C=C1C(=O)N[C@@H](C)C(=O)N(C)[C@@H](C)C(=O)N[C@@H]([C@@H](C)OC(=O)[C@@H](NC(C)=O)[C@@H](C)O)C(=O)N(C)[C@@H]([C@@H](C)OC)C(=O)O[C@H](C)[C@H](NC(C)=O)C(=O)O[C@H](Cc2ccccc2)C(=O)N1C | Guanine nucleotide binding protein q polypeptide (Cricetulus griseus, UniProt Q3HR10) | inositol phosphate, antagonist, TR-FRET | – | 32.3 µM |
| O=C(NCCN1CCC2(CC1)C(=O)NCN2Cc1cccnc1)c1cc2cc(F)ccc2[nH]1 | Phospholipase D2 (Homo sapiens, UniProt O14939) | enzyme activity, inhibitor | – | 0.12 µM |
| C[C@]1(COC(=O)Cc2ccc(O)c(O)c2)[C@H](C(=O)O)N2C(=O)/C(=C/c3ccccn3)[C@H]2S1(=O)=O | OXA-48 (Klebsiella pneumoniae, UniProt Q6XEC0) | inhibitor | together with: nitrocefin | 0.003 ± 0.0003 µM |
| C[C@H](CS)C(=O)Nc1cccc(-n2nccn2)c1 | VIM-2 (Escherichia coli, UniProt Q5U7L7) | enzyme activity, inhibitor, fluorescence | with preincubation | 0.107 µM |
| CC1C(=NOCc2cc(-c3ccc(Cl)cc3)no2)C(C)C(c2ccc(Cl)cc2)OC1c1ccc(Cl)cc1 (stereo not shown) | gyrB (Escherichia coli, UniProt P0AES6) | ATPase activity, inhibitor | – | 4.12 µM |
| O=C(O)CN(CCO)CCO | IMP-28 metallo-beta-lactamase | enzyme activity, inhibitor, FC5 fluorescent substrate | 60 pM enzyme, 1 µM ZnSO4 | > 200 µM |
| NC[C@@H]1[C@@H](O)[C@@H](O)[C@H]2[C@H](O)CCN21 | Alpha-mannosidase 2 (Homo sapiens, UniProt Q16706) | enzyme activity, inhibitor, 4-MU fluorogenic | together with: Man-α-4MU 5 mM | > 200 µM |
| Nc1ncnc2c1ncn2[C@@H]1O[C@H](CSCCNC(=O)NCCc2ccccc2)[C@@H](O)[C@H]1O | PRMT8 (Homo sapiens, UniProt Q9NR22) | enzyme activity, inhibitor, radiometric | – | > 50 µM |
| CC(C)C[C@H](NC(=O)/C=C/c1ccc(OP(=O)(O)O)cc1)C(=O)N1CCC[C@H]1C(=O)N[C@@H](CCC(N)=O)[C@H](C)OCc1ccccc1 | Signal transducer and activator of transcription 3, SH2 domain (STAT3, Homo sapiens, UniProt P40763) | inhibitor, fluorescence polarization | – | 0.272 ± 0.007 µM |
| CN(C)CP(C)(=O)O | Urease subunit alpha (Sporosarcina pasteurii, UniProt P41020) | enzyme activity, inhibitor, indophenol colorimetric | 20 min, pH 7.0, 37 °C, together with: 50 mM urea | 3.8 ± 0.4 µM |

A few entries again:
| SMILES | target | test | setting | IC50 |
| --- | --- | --- | --- | --- |
| CC1C(=NOCc2cc(-c3ccc(Cl)cc3)no2)C(C)C(c2ccc(Cl)cc2)OC1c1ccc(Cl)cc1 (stereo not shown) | gyrB (Escherichia coli, UniProt P0AES6) | ATPase activity, inhibitor | – | 4.12 µM |
